Assay results from different studies.
A part holds a random share of what one study measured. Positions count from the first letter of the parent shown.

Study 1 — technique: protein-binding microarray; molecule type: double-stranded DNA, one strand shown; matrix: in vitro; concentration: 940 nM top; setting: 60-bp whole probe; together with: salmon DNA 0.4 mg/ml; reference: random background probes; direction: higher = stronger binding; constant ends, left off below: GCCTAGCAC … GTCTTGATTCGCTTGACGCTGCTG
Target: Interferon regulatory factor 5, full length, phosphomimetic (IRF5, Homo sapiens, UniProt Q13568-2, residues 1-514, S451D/S453D/S456D/S462D)
Sequence | fitted relative affinity [z-score]
TTAGAGATCAGTCTCGATTAGTGCTAG | 2.91
TCAACCTTGAACTTCGGACTGTGCTAG | -0.202
GACGGTTTCGAATATCGGGACGTGCTA | 6.09
TCATATTCATATATATAACTGTGCTAG | 0.451
TTCGGACTGGGTCTCGGTTAGTGCTAG | 1.35
GACGGTATCCTTTACCTGACGTGCTAG | 0.0343
TTAGGTCTCCATTTCCTTTAGTGCTAG | 0.754
GACGATATCAGTTTCGACACGTGCTAG | 4.84
GTAGGTTTCGGTATCGGTTAGTGCTAG | 15.6
TTAGGCCTCGGTTTCGGTTAGTGCTAG | 7.24
GACGAACTGGAGACTGGAGACGTGCTA | -0.237

Study 2 — technique: universal PBM; molecule type: double-stranded DNA, one strand shown; matrix: in vitro; concentration: 600 nM; direction: higher = stronger binding
Target: Sal-like protein 4, full length isoform A (SALL4, Homo sapiens, UniProt Q9UJQ4, residues 1-1053)
Chain of UniProt Q9UJQ4 (whole entry, looked up): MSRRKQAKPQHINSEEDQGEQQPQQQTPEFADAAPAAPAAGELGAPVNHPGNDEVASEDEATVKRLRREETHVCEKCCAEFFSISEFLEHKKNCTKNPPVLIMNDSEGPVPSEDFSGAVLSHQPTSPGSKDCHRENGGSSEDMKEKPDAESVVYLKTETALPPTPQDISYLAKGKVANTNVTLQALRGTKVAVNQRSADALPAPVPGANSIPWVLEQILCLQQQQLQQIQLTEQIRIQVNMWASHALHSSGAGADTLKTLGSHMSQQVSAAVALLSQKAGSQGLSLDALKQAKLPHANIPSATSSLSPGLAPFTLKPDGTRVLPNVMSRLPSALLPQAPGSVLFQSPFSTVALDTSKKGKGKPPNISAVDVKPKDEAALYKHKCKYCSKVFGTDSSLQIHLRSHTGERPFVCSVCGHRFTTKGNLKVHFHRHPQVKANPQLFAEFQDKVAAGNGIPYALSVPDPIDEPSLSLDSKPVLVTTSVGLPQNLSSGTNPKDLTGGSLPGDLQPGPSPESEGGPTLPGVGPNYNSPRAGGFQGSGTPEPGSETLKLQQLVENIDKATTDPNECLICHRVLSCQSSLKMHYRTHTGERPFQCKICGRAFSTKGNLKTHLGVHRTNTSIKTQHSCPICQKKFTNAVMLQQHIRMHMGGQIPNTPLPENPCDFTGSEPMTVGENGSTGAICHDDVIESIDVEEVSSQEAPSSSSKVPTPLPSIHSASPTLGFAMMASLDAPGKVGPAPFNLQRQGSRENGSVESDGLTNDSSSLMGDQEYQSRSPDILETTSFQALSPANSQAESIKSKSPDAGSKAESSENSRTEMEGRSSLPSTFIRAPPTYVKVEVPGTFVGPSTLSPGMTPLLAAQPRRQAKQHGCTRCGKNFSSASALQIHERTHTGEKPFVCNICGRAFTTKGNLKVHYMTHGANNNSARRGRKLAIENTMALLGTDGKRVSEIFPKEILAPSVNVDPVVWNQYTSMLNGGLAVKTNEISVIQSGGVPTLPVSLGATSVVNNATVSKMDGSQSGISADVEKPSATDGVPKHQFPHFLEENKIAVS
Setting: 8-mer, flanks averaged, mean of replicates
Sequence | E-score
ACTAGCTG | -0.0946
CGAGCTTA | -0.108
CTTGCATC | -0.203
AGGATTGG | -0.00958
AATTTGAA | 0.333
CGACGTCG | -0.191
ATGGCCAA | -0.00534
CAGTGTGC | -0.225
ATTCGACC | -0.102
AACAAGCA | 0.117
CATCATGA | 0.0635
AGTTTACG | 0.0898
CCCGATTA | -0.0504
GTTACCAA | 0.0373
CATGATTA | 0.353
CGACTAAC | -0.0959
AGAGAAAA | 0.0111
ACATTCCT | 0.109
CAATTACC | 0.093
CATAGGCG | -0.0608
ACATTGTG | 0.0424
TACATAGA | 0.301
ATCAATCA | 0.272

Study 3 — technique: DHFR PCA, deep sequencing; matrix: yeast; together with: (+)-ABA 0.39 µM; reference: wild-type fitted maximum; direction: higher = stronger binding
Target: ABI1, truncated, D143A, DHFR fusion (Arabidopsis thaliana)
Setting: methotrexate growth selection, single substitutions
Parent: PYL1, truncated, DHFR fusion (Arabidopsis thaliana); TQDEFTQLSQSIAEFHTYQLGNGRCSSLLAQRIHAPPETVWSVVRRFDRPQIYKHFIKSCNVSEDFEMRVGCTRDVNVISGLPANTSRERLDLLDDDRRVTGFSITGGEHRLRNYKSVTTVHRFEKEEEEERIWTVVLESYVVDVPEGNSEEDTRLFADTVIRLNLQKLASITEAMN
Substitution | relative binding score [%]
V143G | -10.5
I52W | 14.8
V142M | 2.19
A158N | -0.248
I172L | 29.9
T6S | 51.5
M176A | 27.8
K126D | 73.1
L169R | 12
V143T | 20.9
T73A | 2.54

Study 4 — technique: RNA Bind-n-Seq; molecule type: RNA; matrix: in vitro; concentration: 100 nM; reference: input RNA pool; direction: higher = stronger binding
Target: RING finger protein unkempt homolog, zinc fingers 1-6, SBP tag (UNK, Homo sapiens, UniProt Q9C0B0, residues 30-357)
Chain of UniProt Q9C0B0 (30-357, looked up): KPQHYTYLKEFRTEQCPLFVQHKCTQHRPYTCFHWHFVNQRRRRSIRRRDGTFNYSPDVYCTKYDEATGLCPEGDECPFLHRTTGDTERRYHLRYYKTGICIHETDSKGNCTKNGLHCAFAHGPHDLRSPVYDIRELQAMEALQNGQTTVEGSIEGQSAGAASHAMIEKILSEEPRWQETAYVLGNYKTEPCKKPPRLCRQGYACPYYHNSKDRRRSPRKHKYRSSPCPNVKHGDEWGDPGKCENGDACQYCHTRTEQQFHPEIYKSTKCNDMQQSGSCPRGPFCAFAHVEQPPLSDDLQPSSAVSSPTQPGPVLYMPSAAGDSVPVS
Setting: RNA with constant flanks, vertebrate orthologous sites, ends assumed
Constant ends, left off below: GGGAGUUCUACAGUCCGACGAUC … CAACAGAGGAUUGAGCAUCA
Sequence | bound/input enrichment
UAAGAUUUGAAUACUGGAGCCAAACUAAGGGGCUUGAAAGUAAAGAGAUUUGUAAAAUGCCGGCAUACACAGCUGCAAGACUGCAUCACCUCUGGCUGCUGUGUCCAGGUGUUUAUUACA | 0.218 ratio
UUCAGGCACAACUGACUGGUUCACAGCACUCCUUACAUAGUUAUCUAUCAAAUUCAAGUGUAGUUAAUUUUCAGGAAACAACCAGGCAGUCAUCUUUAUCCUGUAGCCCAAUUGGAGAUU | 1.51 ratio
GCAUACUCCAUCACUGUGAUACUUAAAAUAUGCACAGUCCUAAUUCUUUCUAAAUGAUCCUAUUAUUUUUCUAGCUGUAUCUUUGUAUCUCAUACUGUUAUUUAUCAAUUUUGUUCCCCG | 3.47 ratio
UGCAUUAUUUGACCAGAGUUGAAGUGACAGAGUUUGAAGACAUCAAAUCAGGUUACAGAAUAGAUUUUUAUUUUGACGAAAAUCCGUACUUUGAAAAUAAAGUUCUUUCCAAAGAGUUUC | 0.287 ratio
AUGAUUUUUAAUCUCUUCUCCCCUAUCCUGGUUUUAAAAGUCUUUUUUUUUUUCUUUUAGGCAUAUGUAGUAACAUUAGCAGAAAGAUUUAAUUUGGGCAACUUUGAUUCUUAAAAGAGA | 0.258 ratio
AUUAAAUAUGUAUCAGAUGCUGGAUGUAACAUUGAACCAUCAUUUGUAAUAGAUGUUAAUUUGUUAUAAUUAAGCUACAAAUAGGUUUCCUUAAACCAGAGAUACACUGCCCUUGUCUGA | 0.245 ratio
AUUUAGACCAUGGAGUCUAACCAGGGGGCUAGAAAAAGUAAAGCUGACUUUGUAAAAUUAUAGCCAUAUGCAGCUGCAUAACAGGACUAUCACUAGCAGCUGUGUUAAAGUAUUUAUAAA | 1.2 ratio
CUAUAUGGGCCUCGCAGAGUUGAAAUAAUGGAAGAGGAAAGUGAACAGUAAUCUUCAUUUUAGUAUUUAUGCUUAGGUGUGAAAUAAAUGUUAUUUGUUGAUCAUUUCUAUAAUCCAGAG | 0.497 ratio

Study 5 — target: CCND3, cyclin fold, Cln2 fusion (human); technique: yeast growth competition, sequencing; matrix: yeast; setting: weak parent motif; reference: not given; direction: higher = stronger binding
Parent: E2F1 docking peptide (human); PPVKRRLDLETDH
Substitution | normalised enrichment score
T11Q | 0.0407
R6N | 0.159
V3S | 0.166
L7I | 0.104
P1V | 0.0536
L7Y | 0.165
R5W | 0.104
K4L | 0.0792
R5C | 0.128
R6S | 0.0761
R6V | 0.0751
K4Y | 0.131
T11I | 0.0475
L7T | 0.124
K4F | 0.152
D8A | 0.127

For quick reference, copied from above (study 5):
Substitution | normalised enrichment score
T11Q | 0.0407
R6N | 0.159
V3S | 0.166
L7I | 0.104
P1V | 0.0536
